Measured values collected from several papers.
Parts stem from different laboratories: compare values within a part only.

Sample 1
Target: Centromere-binding protein 1, full length, His-tagged (CBF1, Saccharomyces cerevisiae, UniProt P17106, residues 1-351)
UniProt P17106, sequence (whole entry, looked up): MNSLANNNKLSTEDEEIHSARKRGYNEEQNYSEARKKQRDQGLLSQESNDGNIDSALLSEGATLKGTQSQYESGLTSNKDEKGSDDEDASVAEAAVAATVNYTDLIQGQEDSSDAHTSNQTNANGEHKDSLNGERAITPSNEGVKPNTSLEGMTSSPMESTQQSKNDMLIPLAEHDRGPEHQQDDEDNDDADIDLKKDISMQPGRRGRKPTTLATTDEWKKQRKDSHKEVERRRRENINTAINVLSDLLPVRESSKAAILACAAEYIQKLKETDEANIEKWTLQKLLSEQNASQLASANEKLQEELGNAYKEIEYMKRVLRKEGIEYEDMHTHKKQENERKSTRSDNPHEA
Method: competition protein-binding microarray
Molecule type: double-stranded DNA, one strand shown
Matrix: in vitro
Concentration: 2 µM
Setting: whole 60-bp probe, lowest competitor level
Added: Pho4 competitor, 0.05 µM
Direction: higher = stronger binding
Constant ends, left off below: … GTCTTGATTCGCTTGACGCTGCTG
| Oligonucleotide | fluorescence intensity [a.u.] |
| --- | --- |
| TAAATTAGTATACTGCCCGATCAAACCATCTAGTTA | 74.7 |
| TCTTGAAGATGGTGCAAACAAAGTTCTGTGGGATTC | 66.5 |
| CTTTCCCGATCTTGTTGGGTGGGTGTAGCACATTTG | 71.7 |
| CAGATGGACACTTGTTACGTGTGGATCAGACTATTG | 78.9 |
| GAAGGTTTGATCCATCACGTGCCAGATTTTATACCG | 7570 |

Sample 2
Target: RING finger protein unkempt homolog, zinc fingers 1-6, GST-SBP tag (UNK, Homo sapiens, UniProt Q9C0B0, residues 30-357)
UniProt Q9C0B0, sequence (30-357, looked up): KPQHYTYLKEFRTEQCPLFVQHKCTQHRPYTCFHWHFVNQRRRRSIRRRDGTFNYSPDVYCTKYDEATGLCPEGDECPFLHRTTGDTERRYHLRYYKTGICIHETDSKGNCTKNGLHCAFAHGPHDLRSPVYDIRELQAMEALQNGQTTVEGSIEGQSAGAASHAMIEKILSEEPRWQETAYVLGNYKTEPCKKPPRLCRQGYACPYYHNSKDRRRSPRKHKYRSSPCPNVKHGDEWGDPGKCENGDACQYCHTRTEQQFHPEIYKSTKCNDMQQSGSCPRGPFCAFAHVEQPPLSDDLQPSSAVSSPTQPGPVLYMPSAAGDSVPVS
Method: RNA Bind-n-Seq
Molecule type: RNA
Matrix: in vitro
Concentration: not given
Setting: RNA with constant flanks, human and mouse sites, ends assumed
Reference: input RNA pool
Direction: higher = stronger binding
Constant ends, left off below: GGGAGUUCUACAGUCCGACGAUC … CAACAGAGGAUUGAGCAUCA
| Oligonucleotide | bound/input enrichment |
| --- | --- |
| AUAAGAAAUUUUCUGUGAAAUAUCCUUCCAUUGUUUAAGCUUUUGUUUUGGUCAUCUUUAUUUAGUUUGCAUGAAGUUGAAAAUUAAGGCAUUUUUAAAAAUUUUACUUCAUGCCCAUUU | 1.59 ratio |
| AUAGGGCACUUACUAACGGAGCUUACAGAACUGGAAGUUGCUCUGGAUGAGUCAGUGGUGAGUGAAUGUAAAGGCCUAGGACAUUACUGUACACUACUGUAGACUUUAUAAACACCGUAC | 0.313 ratio |
| CCGCAGAAUGUUGGCCAAGUGUCUAACCCUGACCUCGCAUCUAAUUUUGCCCCUGGGAAUAAUUCAAAUUUUACCUCUCCGUUAGAAACGAAUCAUUCGUUUAUUCCACCCCCAAACGCG | 0.628 ratio |
| GUCUGUGGCCGCAGUGACACCAUCGACACCGUCUCUGUGCCGUAUGUCUUCCGGUACUUUGUAGCUGAGCUGGCAGCCAUGAACAUCAAAGUGAAACUGGAUGUCAUCUGACUUGAUCCC | 0.129 ratio |
| CGGGCGGCUGGAGACAGUGGAGUCCGUCACGCUGGCGGUGGUGUACAUAUUCAGCCCCGGUACAGGGAGUUUCCCCAGCUUACCCGGUCCCAGGUGAUCCAGGGUGAGUUCUUAAGCUCA | 0.0658 ratio |
| CUGACUGCAAAUAUCCAGGAUCUUAAGGAAGAAUAUUCUAGGAAGAAGGAAACUAUUUCUACUGCUAAUAAAGCGAAUGCAGAGAGGUUGAAAAGGCUGCAGAAAUCUGCAGACUUGUAU | 0.368 ratio |

Sample 3
Target: RNA binding protein fox-1 homolog 2, RRM domain, GST-SBP tag (RBFOX2, Homo sapiens, UniProt O43251-10, residues 100-194)
Method: RNA Bind-n-Seq
Molecule type: RNA
Matrix: in vitro
Concentration: 365 nM
Setting: natural RNA segment, single round, ends assumed
Reference: no-protein control
Direction: higher = stronger binding
Constant ends, left off below: GGGAGUUCUACAGUCCGACGAUC … UGGAAUUCUCGGGUGCCAA
Target sequence (chain): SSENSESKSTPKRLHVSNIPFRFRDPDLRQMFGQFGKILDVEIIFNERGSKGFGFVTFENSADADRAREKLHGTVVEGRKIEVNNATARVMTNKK
| Oligonucleotide | RBNS enrichment (R) |
| --- | --- |
| UUCAAUGGUGCUUAUUAGAAGAAGUUUUUUCAUCUUGUCAUUUUAAGAAAAUAAAACUGGAAAUUGAAUAUGGGUGGCAUGAUUGUACCCUUUUAGUUCUCUUAUUUUUC | 6.87 |
| UGAAAUCCCUGCCAGACGGCUCAGCCUGGUCUGCGGUAAGGCAGGGAGGCUGGAACCAUUUCUGGGCAUUGUGGUCAUUCCCACUGUGUUCCUCCACCUCCUCCCUCCAG | 0.44 |
| UACUUUAGUUGUGGGUGUUAGAGUUUUUGUGUCAUGACUCAGUGUGGUUCACAUUCCUAGUGAGAAGCAGAGAUCUGGAGGUGUGCAGUCCUCAGCCUCACAGCUUCCUU | 1.09 |
| CUGGCAUGGUGAUAUAACUGAAAUCCCUGCACUUGGGAGGGUCACAAGUUUGAGGACCACCUUGGUGUAUAUAAGCAUGAUCUUUGUUCACACAUAAAAGAGAGAGGGAG | 35.1 |
| UUUGAGGAUAGCCAGGUUUGAAAUUUUUAGUUUCUCAGGAAGAGCUCUUCUAUGUGGCAGGGGCUGAUAGGGCAAAAUAAAAUGACAAUUUCUUUAUUGCUACAGAGUAU | 0.834 |
| AUAUAGAUGACUUAAUUACAUUCUUGAUUGGUCAUGUGCAGUCUUCUGAAGAUGAGCUAACAAUGCCUUGUCUAGGACUAUUGGCAAAUCUUUGUCGGCACAAUCUUUCU | 0.243 |
| ACCGAUGGAAACAGAUUGAUGCAGAUGGAAGGAGGAAGGGAGACUGGGCCCACUGAUUUCCAGCCCCACCAUGUGUGCUGUUUUCAGAUGUGAUUGAGGGGUGUUCUGCC | 0.419 |

Single results of other studies
| Substance | target | assay | system | setting | scale | measurement | value |
| --- | --- | --- | --- | --- | --- | --- | --- |
| PhoQ, residues 284 288 289 292 302 303 AMDMFI | PhoP, residues 12 14 15 18 19 SMASL (Escherichia coli, UniProt P23836) | Sort-seq, item: YFP reporter | E. coli | PhoQ-PhoP variant library, added: 10 µM Mg2+ | reference: high Mg2+ state, higher = stronger signaling | fold induction | 0.464 |

For quick reference, copied from above (sample 2):
| Oligonucleotide | bound/input enrichment |
| --- | --- |
| AUAAGAAAUUUUCUGUGAAAUAUCCUUCCAUUGUUUAAGCUUUUGUUUUGGUCAUCUUUAUUUAGUUUGCAUGAAGUUGAAAAUUAAGGCAUUUUUAAAAAUUUUACUUCAUGCCCAUUU | 1.59 ratio |
